Measured values collected from several papers.
A part holds a random share of what one study measured. Substitutions count along the parent as printed.

Set 1
Target: CEP164, C-terminal peptide (human)
Technique: DHFR complementation, deep sequencing
Medium: yeast
Notes: single substitutions, model-inferred values
Reference: wild type
Direction: higher = weaker binding
Quantity: binding free energy change
Starting sequence: PDZK1, PDZ domain 2 (human); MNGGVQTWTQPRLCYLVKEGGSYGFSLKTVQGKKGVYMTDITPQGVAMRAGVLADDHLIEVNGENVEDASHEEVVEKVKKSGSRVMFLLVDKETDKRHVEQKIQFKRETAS; partner HNRVKVYRF
N65H: -0.103 kcal/mol
T7G: -0.328 kcal/mol
M86N: -0.248 kcal/mol
S22N: 0.473 kcal/mol
V46K: 0.683 kcal/mol
F105L: -0.176 kcal/mol
Q10A: -0.0815 kcal/mol
V74K: 1.12 kcal/mol
T39E: 0.607 kcal/mol
T42H: 0.388 kcal/mol
E64A: 0.125 kcal/mol
K18C: 0.478 kcal/mol
K80L: 0.546 kcal/mol
V46R: 0.888 kcal/mol
Q104P: -0.231 kcal/mol

Set 2
Target: ABI1, truncated, D143A, DHFR fusion (Arabidopsis thaliana)
Technique: DHFR PCA, deep sequencing
Medium: yeast
Notes: methotrexate growth selection, single substitutions
With: (+)-ABA 4.8 µM
Reference: wild-type fitted maximum
Direction: higher = stronger binding
Quantity: relative binding score
Starting sequence: PYL1, truncated, DHFR fusion (Arabidopsis thaliana); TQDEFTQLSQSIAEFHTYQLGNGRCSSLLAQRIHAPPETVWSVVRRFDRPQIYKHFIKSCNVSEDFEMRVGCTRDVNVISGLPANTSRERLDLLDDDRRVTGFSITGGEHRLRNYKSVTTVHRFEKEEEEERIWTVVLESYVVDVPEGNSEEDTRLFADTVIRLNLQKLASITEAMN; partner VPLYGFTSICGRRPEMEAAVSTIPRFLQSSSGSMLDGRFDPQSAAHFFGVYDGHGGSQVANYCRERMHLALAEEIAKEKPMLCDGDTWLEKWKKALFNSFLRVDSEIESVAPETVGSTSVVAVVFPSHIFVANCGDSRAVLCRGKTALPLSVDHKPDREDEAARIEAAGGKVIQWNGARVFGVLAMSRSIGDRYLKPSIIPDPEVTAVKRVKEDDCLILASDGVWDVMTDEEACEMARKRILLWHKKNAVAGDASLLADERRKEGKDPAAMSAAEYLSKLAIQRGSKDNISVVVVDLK
E128G: 95.3%
D159L: -9.88%
S104Q: -5.15%
H34D: 78%
T17E: 31%
N114R: 15.6%
L169F: 1.6%
S63F: 20.2%
L138M: 31.3%
C60Y: 15.8%
T173Y: 2.94%
N61S: 81.5%
L156F: 60.5%
P146G: 12.6%
W134Y: 93.4%
A30K: 72.7%
S9V: 54.1%
G71R: 1.43%
E125W: 61.1%
V143N: -6.1%

Set 3
Target: RNA binding protein fox-1 homolog 2, RRM domain, GST-SBP tag (RBFOX2, Homo sapiens, UniProt O43251-10, residues 100-194)
Technique: RNA Bind-n-Seq
Form: RNA
Medium: in vitro
Concentration: 365 nM
Notes: natural RNA segment, single round, ends assumed
Reference: no-protein control
Direction: higher = stronger binding
Quantity: RBNS enrichment (R)
Target sequence (chain): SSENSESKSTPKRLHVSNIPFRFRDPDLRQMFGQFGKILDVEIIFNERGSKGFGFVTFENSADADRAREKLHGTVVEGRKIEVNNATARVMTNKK
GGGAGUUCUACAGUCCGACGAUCGAAACCACAAGGCAUUUGAUGCUACCGUUCUGGUCAGGGAUUGGGCUGCUUCUUCAGUUCCUAAUACCAGACCAAGCCUCCUGAUGCCUUUCUGCACUGCAACUGUGUGAUGGAAUUCUCGGGUGCCAA: 0.412
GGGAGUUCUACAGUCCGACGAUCUGGCCCAAGGGGUUAAGUGGGAACAAUCAUUAUACGGACUCUUCAGAUUUACAGAGAACUUACACUUCAUCUGUUCCACCUCUCCUGCGAUAGUCCUGGGUGCUCCACUGUGGAAUUCUCGGGUGCCAA: 0.338
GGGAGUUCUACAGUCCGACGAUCUUGACAUAUACCCUGGUGACUAUAACCAGUGAACUGUUCAGAGUCAGUCUUUUCGGCAAGAACUUCAGAGAACUGUGACACUGGUUAUGAUGUGAUUUUGGGGGGUUUCAUGGAAUUCUCGGGUGCCAA: 0.642
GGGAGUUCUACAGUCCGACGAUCCCUGAGCAUGGGGUUCCGGCUGUCACUCAGGCUCAGAGACCCAGCUGGGCUGGGCUUUGCCUUUCAGCAUUCUGUCUGUCUCACUGGUCAUGCAUUGUUCCAUAGUCGCCUGGAAUUCUCGGGUGCCAA: 0.566
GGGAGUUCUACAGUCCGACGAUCCUUGCCCCAUCUUCCUCCCAACUGGAGGCCUCUGAGCCUCCCCUGUGCCUUGGGCCCUGAAGCCCCAUAUGUAGUAUAGAGCAAAGGUGGCUCCUGGUGAAGAGAGGGUGUGGAAUUCUCGGGUGCCAA: 0.28
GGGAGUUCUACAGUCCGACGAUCUUAAAAUCCCCUUCGCACUGCAGCAGUGCCCACCCCCUUCAUGUGAUUGUACAGUAUUCAAACUUUUUCUUAUGUACAGUAAACUUUACCAUAUGGCAAAGGCCUUUAUUUGGAAUUCUCGGGUGCCAA: 0.609
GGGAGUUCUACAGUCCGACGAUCCUCUGGCUUGGGCCGGGCGUGGUGGCUCACACCUGUAAUCCCAACACUUUGGGAGGCCAAGGCAGGUAGAUCACUUGAUGCCAGGAGUUCCAGACCAGGCUGGCCGACAUUGGAAUUCUCGGGUGCCAA: 0.228
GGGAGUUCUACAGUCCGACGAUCGCCCUUUGAGACAAAAGAAACAGGCCCAGCACGAGUGGAAGUGGGUGUCUGUGUUUCUGUUUGCACUGUUUCUGUGACAGCCACCCAGGCAAAAUCAUGAAAUACACUCGUGGAAUUCUCGGGUGCCAA: 0.792

Set 4
Target: CCND1, cyclin fold, Cln2 fusion (human)
Technique: yeast growth competition, sequencing
Medium: yeast
Notes: weak parent motif
Reference: not given
Direction: higher = stronger binding
Quantity: normalised enrichment score
Starting sequence: PPP1R3F docking peptide (human); VAPRRVLFADEAL
VAPRAVLFADEAL [R5A]: 0.67
VAPRRVLAADEAL [F8A]: -0.0998
VAPRRVLFADEAA [L13A]: 0.366
VAPRKVLLADEAL [R5K F8L]: 0.0961
AAPRRVLFADEAL [V1A]: 0.524
VAPRRVAFADEAL [L7A]: 0.264

Set 5
Target: PABPC1L2, full length, GST fusion (mouse, UniProt A0ABA7IW68)
Technique: RNAcompete
Form: RNA
Medium: in vitro
Concentration: 20 nM
Notes: 7-mer, probes averaged, single round
Reference: mean of 7-mers
Direction: higher = stronger binding
Quantity: 7-mer Z-score
Construct (chain): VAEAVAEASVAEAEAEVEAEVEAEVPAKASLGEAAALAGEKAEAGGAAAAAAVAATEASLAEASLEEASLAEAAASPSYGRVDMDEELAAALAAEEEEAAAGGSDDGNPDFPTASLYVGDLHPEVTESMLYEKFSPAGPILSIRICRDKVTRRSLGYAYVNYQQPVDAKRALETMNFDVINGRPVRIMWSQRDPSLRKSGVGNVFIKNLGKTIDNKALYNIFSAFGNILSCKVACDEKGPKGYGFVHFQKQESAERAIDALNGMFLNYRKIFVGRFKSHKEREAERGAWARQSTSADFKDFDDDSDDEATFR
CAAGUGG: 0.102
AAGCGUC: -0.0609
GGCUUCU: -0.273
GUUUUUU: -0.394
AGGGGUA: 0.294
GGCUCCG: -0.0573
GUGAAUC: -0.161
CUACAAA: 1.54
AGAGCCU: -0.347
UGGUUAC: -0.228
AGCCCGC: -0.302
GCCGUAA: -0.0591
GCACCCU: -0.306
GACACGG: -0.0264
AUUUAGC: 0.273
AGGAUUA: 0.0279
GUCACAG: 0.115
AUAUAAC: -0.012
AGUACUG: -0.211
GGUACGC: -0.0192
ACUUCGG: -0.126
CACCAUU: -0.229
AGCAUAC: -0.104
UACUGGU: -0.144
UUGAGGU: -0.0591

Other studies, line by line
PhoQ, residues 284 288 289 292 302 303 SLANKL — fold induction (PhoP, residues 12 14 15 18 19 NNFVT (Escherichia coli, UniProt P23836); Sort-seq, refers to: YFP reporter; E. coli; PhoQ-PhoP variant library, with: 10 µM Mg2+; reference: high Mg2+ state, higher = stronger signaling): 14.7

Some of these lines once more (set 2):
L156F: 60.5%
S9V: 54.1%
S63F: 20.2%
L138M: 31.3%
T17E: 31%
W134Y: 93.4%
N114R: 15.6%
